Experimental data collected from several papers.
Compare with care: the assays were run in different laboratories. Values joined by “and” are separate records of one study, mostly repeats; a detail may differ. ± marks the error that the study gave.
Sequence of UniProt Q9LMA8 (whole entry, looked up): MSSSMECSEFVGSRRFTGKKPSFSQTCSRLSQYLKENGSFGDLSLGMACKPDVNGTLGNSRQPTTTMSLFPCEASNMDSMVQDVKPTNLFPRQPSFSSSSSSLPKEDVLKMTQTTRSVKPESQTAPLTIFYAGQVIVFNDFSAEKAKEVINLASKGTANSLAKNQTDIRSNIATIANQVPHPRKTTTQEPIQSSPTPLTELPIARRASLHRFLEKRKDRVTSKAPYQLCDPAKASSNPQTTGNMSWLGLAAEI
Sequence of UniProt O04197 (whole entry, looked up): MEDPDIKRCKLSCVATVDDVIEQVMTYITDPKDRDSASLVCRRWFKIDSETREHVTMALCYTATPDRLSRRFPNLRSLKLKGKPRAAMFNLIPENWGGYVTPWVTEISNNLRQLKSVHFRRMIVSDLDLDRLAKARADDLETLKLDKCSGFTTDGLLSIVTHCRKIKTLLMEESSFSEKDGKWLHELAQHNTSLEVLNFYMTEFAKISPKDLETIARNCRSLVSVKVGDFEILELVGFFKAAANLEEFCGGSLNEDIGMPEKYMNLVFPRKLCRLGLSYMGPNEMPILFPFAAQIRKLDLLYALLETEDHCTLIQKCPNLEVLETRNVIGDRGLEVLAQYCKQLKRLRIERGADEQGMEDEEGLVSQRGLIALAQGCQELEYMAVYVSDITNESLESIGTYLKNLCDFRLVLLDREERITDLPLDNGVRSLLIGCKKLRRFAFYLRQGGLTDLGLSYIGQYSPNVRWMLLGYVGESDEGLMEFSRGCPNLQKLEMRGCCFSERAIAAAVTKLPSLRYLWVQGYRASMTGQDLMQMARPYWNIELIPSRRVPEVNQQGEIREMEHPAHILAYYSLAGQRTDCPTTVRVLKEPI

SMILES | target or system | assay | test system | setting | scale | measurement | value
CC[C@H](C)[C@H](NC(=O)[C@H](Cc1ccccc1)NC(=O)[C@H](CC(=O)O)NC(=O)[C@H](CCCCN)NC(=O)[C@H](C)NC(=O)[C@H](CCCCN)NC(=O)[C@H](CC(N)=O)NC(=O)[C@H](CC(C)C)NC(=O)[C@H](Cc1c[nH]c2ccccc12)NC(=O)[C@H](CCC(=O)O)NC(=O)[C@H](CCCCN)NC(=O)[C@@H](NC(=O)CNC(=O)[C@H](C)N)[C@@H](C)O)C(=O)N[C@@H](CCCCN)C(=O)N[C@@H](CCC(=O)O)C(=O)N[C@@H](CCCCN)C(=O)NCC(=O)N1CCC[C@H]1C(=O)NCC(=O)N[C@@H](CCSC)C(=O)N[C@@H](CC(C)C)C(=O)N[C@@H](CO)C(=O)N[C@@H](C)C(=O)N[C@@H](C)C(=O)N[C@@H](C)C(=O)N[C@@H](CC(N)=O)C(=O)N[C@@H](C)C(=O)N[C@@H](C)C(=O)N[C@@H](CC(C)C)C(=O)N[C@@H](CC(N)=O)C(=O)O | Lucilia cuprina |  |  | thorax injection, 24 h |  | LD50 | > 50 nmol/g
COc1ccc(-c2cnnn2-c2cc(OC)c(OC)c(OC)c2)cc1N | MCF-10A | cytotoxicity, nuclei counting |  | 24 h |  | EC50 | 8.85 ± 2.47 nM
Cc1cccc(NC(=O)C[S+]([O-])c2nc(-c3ccccc3)cn2-c2ccc(Cl)cc2)c1C (stereo not shown) | Middle East respiratory syndrome-related coronavirus | viral entry |  |  |  | IC50 | 30200 nM
CC(C)C[C@@H]1NC(=O)[C@H](CCCNC(=N)N)NC(=O)[C@@H]2CCCN2C(=O)[C@@H]2CSSC[C@H](NC(=O)CNC(=O)[C@@H]3CCCN3C(=O)[C@H](CCCCN)NC(=O)[C@H](CC(=O)O)NC(=O)[C@@H](NC(=O)CN)C(C)C)C(=O)N[C@@H](CCCNC(=N)N)C(=O)N[C@@H](Cc3ccc(O)cc3)C(=O)N[C@@H](CC(C)C)C(=O)N[C@@H](Cc3ccccc3)C(=O)NCC(=O)NCC(=O)N[C@H]3CSSC[C@H](NC(=O)CNC1=O)C(=O)N[C@@H](CCCCN)C(=O)NCC(=O)N[C@@H](CCCCN)C(=O)NCC(=O)N[C@@H](Cc1c[nH]cn1)C(=O)N[C@@H](CC(=O)O)C(=O)N[C@@H](Cc1ccc(O)cc1)C(=O)N[C@H](C(=O)N[C@@H](C)C(=O)N[C@@H](Cc1c[nH]c4ccccc14)C(=O)N[C@@H](CC(=O)O)C(=O)NCC(=O)N[C@H](C(=O)N[C@@H](Cc1ccccc1)C(=O)N[C@@H](CO)C(=O)N[C@@H](CC(=O)O)C(=O)O)[C@@H](C)O)CSSC[C@H](NC(=O)[C@H](CC(=O)O)NC(=O)[C@H](CC(=O)O)NC(=O)[C@H](CC(=O)O)NC(=O)[C@H](CO)NC(=O)[C@H](CCCCN)NC3=O)C(=O)N2 |  |  | adult mice | intraplantar, 60 pmol/paw |  | paw withdrawal temperature | 46.9 ± 0.4 °C
CC[C@H](C)[C@@H]1NC(=O)[C@H](CCCNC(=N)N)NC(=O)[C@H](CO)NC(=O)[C@H](CCC(=O)O)NC(=O)[C@H](CC(=O)O)NC(=O)CNC(=O)CNC(=O)[C@H]([C@@H](C)O)NC(=O)[C@H](Cc2ccccc2)NC(=O)[C@H](CO)NC(=O)[C@H]([C@@H](C)O)NC(=O)[C@H](C)NC(=O)[C@@H]2CSSC[C@@H](C(=O)N[C@@H](Cc3ccc(O)cc3)C(=O)N[C@@H](Cc3ccccc3)C(=O)N[C@H](C(=O)N[C@H](C(=O)NCC(=O)O)[C@@H](C)O)[C@@H](C)O)NC(=O)[C@H]([C@@H](C)O)NC(=O)[C@H](CSSC[C@H](NC(=O)[C@H](CCC(=O)O)NC(=O)[C@H](CO)NC(=O)[C@H](CCCCN)NC(=O)[C@H](Cc3ccc(O)cc3)NC(=O)[C@@H]3CCCN3C(=O)[C@H](Cc3ccccc3)NC(=O)[C@H](CCCCN)NC(=O)[C@H](CCCNC(=N)N)NC(=O)[C@H](CCCCN)NC(=O)[C@H](CCCCN)NC(=O)[C@H](Cc3ccc(O)cc3)NC(=O)[C@@H]3CCCN3C(=O)[C@@H](NC(=O)[C@H](CC(=O)O)NC(=O)[C@H](CCCCN)NC(=O)[C@H](CCCCN)NC(=O)[C@@H](NC(=O)[C@@H](NC(=O)[C@@H](N)CCC(=O)O)C(C)C)[C@@H](C)CC)[C@@H](C)O)C(=O)N[C@@H](CC(C)C)C(=O)N[C@@H](CCCCN)C(=O)N[C@@H](C)C(=O)N2)NC(=O)[C@H](CCCCN)NC(=O)[C@H](Cc2ccccc2)NC(=O)[C@H](Cc2ccccc2)NC(=O)CNC(=O)[C@@H]2CCCN2C(=O)[C@H](CCCCN)NC(=O)CNC(=O)[C@H](CCC(=O)O)NC(=O)[C@H](CCC(N)=O)NC1=O | CA1 pyramidal neurons, mouse brain slices | patch clamp |  | 10 µM, together with: 40 pA depolarizing current |  | spiking frequency | ~20 Hz
CC(C)C[C@H](NC(=O)[C@H](CCCCN)NC(=O)[C@H](Cc1c[nH]c2ccccc12)NC(=O)[C@H](CCCCN)NC(=O)[C@@H]1CSSC[C@@H]2NC(=O)[C@H](CCC(=O)O)NC(=O)[C@H](CC(N)=O)NC(=O)[C@H](CCCCN)NC(=O)CNC(=O)[C@@H]3CCCN3C(=O)[C@H]([C@@H](C)O)NC(=O)[C@@H]3CSSC[C@H](NC(=O)[C@H](C(C)C)NC(=O)[C@H](CCCNC(=N)N)NC(=O)[C@H](CC(N)=O)NC(=O)[C@@H]4CCCN4C(=O)[C@H](CSSC[C@H](NC(=O)[C@H](C)N)C(=O)N[C@@H](CCCCN)C(=O)NCC(=O)N[C@@H](C(C)C)C(=O)N[C@@H](Cc4ccccc4)C(=O)N[C@@H](CC(=O)O)C(=O)N[C@@H](C)C(=O)N3)NC2=O)C(=O)N[C@@H](CO)C(=O)N[C@@H](CC(=O)O)C(=O)N[C@@H](CCCCN)C(=O)N[C@@H](Cc2c[nH]cn2)C(=O)N[C@@H](CCCCN)C(=O)N[C@@H](Cc2c[nH]c3ccccc23)C(=O)N1)C(N)=O | Nav1.5 (human) | sodium current, inhibitor, two-electrode voltage clamp | Xenopus laevis oocytes | 1 µM, pH 7.4, holding potential -90 mV |  | inhibition | 15.7 ± 2.8%
CCC1C=C(C(=O)NC2(C(=O)O)CC2CC)C2CCC(=O)C2C1 (stereo not shown) | COI1/TIFY10A, JAZ1 degron peptide (Arabidopsis thaliana, UniProt O04197+Q9LMA8) | saturation binding |  | COI1-ASK1 with JAZ1 degron peptide |  | Kd | 108 ± 29 nM
[N-]=[N+]=N[C@]1(CO)O[C@@H](n2ccc(N)nc2=O)C(F)(F)[C@@H]1O | Zaire ebolavirus | viral replication | Makona |  |  | EC50 | 600 ± 80 nM
CC(C)C[C@H](NC(=O)[C@H](C)NC(=O)CNC(=O)[C@H](C)NC(=O)CNC(=O)[C@H](Cc1c[nH]cn1)NC(=O)[C@H](CCCCN)NC(=O)[C@H](CC(C)C)NC(=O)[C@H](C)NC(=O)[C@H](CCCCN)NC(=O)[C@H](CCCNC(=N)N)NC(=O)[C@@H](NC(=O)[C@H](CC(C)C)NC(=O)[C@H](CCCCN)NC(=O)[C@H](CCCCN)NC(=O)[C@H](CC(C)C)NC(=O)[C@H](CCCCN)NC(=O)[C@H](CCCCN)NC(=O)[C@H](CCCNC(=N)N)NC(=O)[C@H](Cc1c[nH]c2ccccc12)NC(=O)[C@H](CCCCN)NC(=O)[C@H](CCCNC(=N)N)NC(=O)[C@@H](N)CCCCN)C(C)C)C(=O)N[C@@H](CC(C)C)C(=O)N[C@@H](CO)C(N)=O | Drosophila melanogaster | calcium response, calcium imaging | class III da neurons, ppk1.9-Gal4 UAS-GCaMP6f |  |  | EC50 | 20700 nM
O=c1ccn(C2OC(F)(CO)C(O)C2O)c(=O)[nH]1 (stereo not shown) | Lassa virus | Gaussia luciferase reporter | clade IV | concentration not given, minigenome with NP and L |  | replicon activity | inhibited
Cc1ccc(NS(=O)(=O)c2c(C(=O)N3CCCCCC3)c(C)n(C)c2C)c(Cl)c1 | Monkeypox virus | viral infection | replication-deficient | 0.412 µM, 60 h | baseline: untreated | infection | 9.77% and 8.65% and 7.9%
CC[C@H](C)[C@H](NC(=O)[C@H](Cc1ccccc1)NC(=O)[C@H](CC(=O)O)NC(=O)[C@H](CCCCN)NC(=O)[C@H](C)NC(=O)[C@H](CCCCN)NC(=O)[C@H](CC(N)=O)NC(=O)[C@H](CC(C)C)NC(=O)[C@H](Cc1c[nH]c2ccccc12)NC(=O)[C@H](CCC(=O)O)NC(=O)[C@H](CCCCN)NC(=O)[C@@H](NC(=O)CN)[C@@H](C)O)C(=O)N[C@@H](CCCCN)C(=O)N[C@@H](CCC(=O)O)C(=O)N[C@@H](CCCCN)C(=O)NCC(=O)N[C@@H](CC(C)C)C(=O)NCC(=O)N[C@@H](CCSC)C(=O)N[C@@H](CC(C)C)C(=O)N[C@@H](CO)C(=O)N[C@@H](C)C(=O)N[C@@H](C)C(=O)N[C@@H](C)C(=O)N[C@@H](CC(N)=O)C(=O)N[C@@H](C)C(=O)N[C@@H](C)C(=O)N[C@@H](CC(C)C)C(=O)N[C@@H](CC(N)=O)C(=O)O | Lucilia cuprina |  |  | thorax injection, 24 h |  | LD50 | 41.7 ± 18.3 nmol/g
CC(C)Oc1ccc(-n2cnc3cc(/C=C\c4ccc(C(C)(C)O)cc4)ccc32)cc1 | Lassa virus |  | HeLa, clade II Nigeria-322 |  |  | EC50 | 50 ± 20 nM
